Experimental data collected from several papers.
Compare with care: the assays were run in different laboratories.
ACTA1: ACTA1, pyrene label (Oryctolagus cuniculus, UniProt P68135)
T1: STAG2/RAD21 STAG2 80-1060, RAD21 281-420 (Homo sapiens); chain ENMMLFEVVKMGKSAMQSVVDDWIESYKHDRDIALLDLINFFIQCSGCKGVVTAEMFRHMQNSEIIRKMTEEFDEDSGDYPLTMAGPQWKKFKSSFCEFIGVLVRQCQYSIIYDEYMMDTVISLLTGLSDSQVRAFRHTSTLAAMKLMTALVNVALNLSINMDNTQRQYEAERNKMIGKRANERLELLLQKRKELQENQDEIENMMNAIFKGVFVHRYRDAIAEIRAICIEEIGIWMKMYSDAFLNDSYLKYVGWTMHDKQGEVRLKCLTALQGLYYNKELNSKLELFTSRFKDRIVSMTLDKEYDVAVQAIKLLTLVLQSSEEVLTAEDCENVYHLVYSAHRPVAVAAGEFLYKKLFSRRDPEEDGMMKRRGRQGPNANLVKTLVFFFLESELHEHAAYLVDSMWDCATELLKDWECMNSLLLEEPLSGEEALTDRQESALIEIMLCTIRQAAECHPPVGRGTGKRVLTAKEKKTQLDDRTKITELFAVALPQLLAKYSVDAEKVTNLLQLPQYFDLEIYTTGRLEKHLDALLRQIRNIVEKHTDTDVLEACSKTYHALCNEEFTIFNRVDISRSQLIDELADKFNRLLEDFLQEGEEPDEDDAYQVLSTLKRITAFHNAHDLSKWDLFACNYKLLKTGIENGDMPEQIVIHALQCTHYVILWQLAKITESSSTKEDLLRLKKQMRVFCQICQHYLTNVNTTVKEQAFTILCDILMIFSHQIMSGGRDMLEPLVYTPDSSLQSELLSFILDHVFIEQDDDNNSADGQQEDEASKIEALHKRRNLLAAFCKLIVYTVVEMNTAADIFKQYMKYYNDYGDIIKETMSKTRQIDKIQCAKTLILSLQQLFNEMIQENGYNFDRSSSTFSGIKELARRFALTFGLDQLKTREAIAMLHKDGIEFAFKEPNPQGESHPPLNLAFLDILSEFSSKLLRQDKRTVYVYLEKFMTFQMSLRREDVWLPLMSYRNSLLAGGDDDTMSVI; chain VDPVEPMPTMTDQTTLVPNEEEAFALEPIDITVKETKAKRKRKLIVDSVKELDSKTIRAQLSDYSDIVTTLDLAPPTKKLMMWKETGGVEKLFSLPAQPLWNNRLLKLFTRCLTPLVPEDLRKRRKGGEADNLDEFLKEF
B1: kaiA (Synechococcus elongatus, UniProt Q79PF6); chain MLSQIAICIWVESTAILQDCQRALSADRYQLQVCESGEMLLEYAQTHRDQIDCLILVAANPSFRAVVQQLCFEGVVVPAIVVGDRDSEDPDEPAKEQLYHSAELHLGIHQLEQLPYQVDAALAEFLRLAPVETMADHIMLMGANHDPELSSQQRDLAQRLQERLGYLGVYYKRDPDRFLRNLPAYESQKLHQAMQTSYREIVLSYFSPNSNLNQSIDNFVNMAFFADVPVTKVVEIHMELMDEFAKKLRVEGRSEDILLDYRLTLIDVIAHLCEMYRRSIPRET
B2: Fmnl3 555-954 K800A (Mus musculus, UniProt Q6ZPF4); chain GLSAIRIKKPIKTKFRLPVFNWTALKPNQINGTVFSELDDEKILEDLDLDRFEELFKTKAQGPALDLICSKNKTAQKAASKVTLLEANRAKNLAITLRKAGRSAEEICRAIHTFDLQTLPVDFVECLMRFLPTEAEVKLLRQYERERQPLEELAAEDRFMLLFSKVERLTQRMAGMAFLGNFQDNLQMLTPQLNAIIAASASVKSSQKLKQMLEIILALGNYMNSSKRGAVYGFKLQSLDLLLDTASTDRKMTLLHFIALTVKEKYPELANFWQELHFVEKAAAVSLENVLLDVKELGRGMELIRRECSIHDNSVLRNFLSTNEGKLDKLQRDAKTAEEAYNAVVRYFGESPKTTPPSVFFPVFVRFIRSYKEAEQENEARKKQEEVMREKQLAQEAKKL
B3: Bid (Mus musculus, UniProt P70444); chain MDSEVSNGSGLGAEHITDLLVFGFLQSSGCTRQELEVLGRELPVQAYWEADLEDELQTDGSQASRSFNQGRIEPDSESQEEIIHNIARHLAQIGDEMDHNIQPTLVRQLAAQFMNGSLSEEDKRNCLAKALDEVKTAFPRDMENDKAMLIMTMLLAKKVASHAPSLLRDVFHTTVNFINQNLFSYVRNLVRNEMD
B4: Gp1.2 residues 2-end 2-85 (bacteriophage T7, UniProt P03780); sequence looked up; chain GRLYSGNLAAFKAATNKLFQLDLAVIYDDWYDAYTRKDCIRLRIEDRSGNLIDTSTFYHHDEDVLFNMCTDWLNHMYDQLKDWK
B5: Fmnl3 555-954 (Mus musculus, UniProt Q6ZPF4); chain GLSAIRIKKPIKTKFRLPVFNWTALKPNQINGTVFSELDDEKILEDLDLDRFEELFKTKAQGPALDLICSKNKTAQKAASKVTLLEANRAKNLAITLRKAGRSAEEICRAIHTFDLQTLPVDFVECLMRFLPTEAEVKLLRQYERERQPLEELAAEDRFMLLFSKVERLTQRMAGMAFLGNFQDNLQMLTPQLNAIIAASASVKSSQKLKQMLEIILALGNYMNSSKRGAVYGFKLQSLDLLLDTKSTDRKMTLLHFIALTVKEKYPELANFWQELHFVEKAAAVSLENVLLDVKELGRGMELIRRECSIHDNSVLRNFLSTNEGKLDKLQRDAKTAEEAYNAVVRYFGESPKTTPPSVFFPVFVRFIRSYKEAEQENEARKKQEEVMREKQLAQEAKKL

With `RIGI (Homo sapiens, UniProt O95786)` the relative binding was greater than 4 fold (DDX58 F539A/K858Q/K909Q (human, UniProt O95786); co-IP; Huh7 RIG-I knockdown; 24 h, not purified; baseline: RIG-I F539A, higher = greater reduction in binding).
For `B1 (kaiA)`, “rate constant k1” read 0.12 h⁻¹ (kaiC 1-519 E352Q (Synechococcus elongatus, UniProt Q79PF4); priming phosphorylation, SDS-PAGE; 0.2 mg/mL, 30 °C, with: KaiA 0.04 mg/mL; higher = faster).
`sevA (Dictyostelium discoideum, UniProt P10733)` — result for “F-actin at steady state”: 97.5% (actin G-actin, pyrene label (Oryctolagus cuniculus, UniProt P68135); actin polymerization, inhibitor; 50 nM, 14 h, capping, with: EGTA; baseline: control, higher = more F-actin).
With `Dync1i2 (Mus musculus, UniProt O88487)` the DIC2/DHC ratio was 1.2 fold (Dync1h1 F580Y (Mus musculus, UniProt Q9JHU4); co-sedimentation; brain extract; with: taxol 20 µM, AMP-PNP 1 mM; baseline: wild type, higher = more dynein bound).
The cAMP accumulation of `PTGER2 Y142A (Homo sapiens)` is reported as 50 fold (GNAS/GNB1/GNG2 heterotrimer (Homo sapiens); GloSensor; COS-7; with: PGE2; baseline: wild type EP2, higher = greater reduction).
With `sbi fragment (Staphylococcus aureus)` the IC50 was 10000 nM (C3 (Homo sapiens); alternative complement pathway inhibition, inhibitor; human serum).
For `Kistrin-CD31 fusion`, the relative binding was 2 fold (ITGAV/ITGB3 D723A (Mus musculus); flow cytometry; B16F1; baseline: wild type, higher = more binding).
`B2 (Fmnl3 555-954 K800A)` gave an IC50 of 8.3 nM (ACTA1; inhibition of filament elongation, inhibitor, pyrene-actin assay).
The stationary behaviour of `Ank2` is reported as 28.6% (L1cam (Rattus norvegicus, UniProt Q05695); single particle tracking; ND-7; baseline: untreated, higher = more stationary).
`B3 (Bid)` — result for binding: “binds” (BCL2L1 1-209 G138A (Homo sapiens, UniProt Q07817-1); co-IP).
Under “molecule per partner”, `CTCF fragment (Homo sapiens) (sequence not shown)` is recorded as 0.78 (T1, STAG2/RAD21 STAG2 80-1060, RAD21 281-420 (Homo sapiens); ITC).
`ACE2/pIgR VHH6 Fc fusion ACE2 , Fc at C-terminus (Homo sapiens)` gave a koff of 0.000139 s⁻¹ (PIGR (Homo sapiens, UniProt P01833); BLI).
`B4 (Gp1.2 residues 2-end 2-85)` gave an IC50 of 70 nM (dgt 1-505 (Escherichia coli, UniProt P15723); dGTP hydrolysis inhibition, inhibitor; from KM increase, with: dGTP).
For `RII-PvDBP region II R274A (Plasmodium vivax)`, the RBC rosetting was 50% (ACKR1 1-60 C4A/C51A/C54A (Homo sapiens, UniProt Q16570); red blood cell rosetting; HEK293T; baseline: wildtype, higher = more rosetting).
`B5 (Fmnl3 555-954)` gave an IC50 of 1.7 nM (ACTA1; inhibition of filament elongation, inhibitor, pyrene-actin assay).
